Assay results collected from several papers.
Every numbered part comes from another study and shows a few of its results, in no order.
UniProt O95747, sequence (whole entry, looked up): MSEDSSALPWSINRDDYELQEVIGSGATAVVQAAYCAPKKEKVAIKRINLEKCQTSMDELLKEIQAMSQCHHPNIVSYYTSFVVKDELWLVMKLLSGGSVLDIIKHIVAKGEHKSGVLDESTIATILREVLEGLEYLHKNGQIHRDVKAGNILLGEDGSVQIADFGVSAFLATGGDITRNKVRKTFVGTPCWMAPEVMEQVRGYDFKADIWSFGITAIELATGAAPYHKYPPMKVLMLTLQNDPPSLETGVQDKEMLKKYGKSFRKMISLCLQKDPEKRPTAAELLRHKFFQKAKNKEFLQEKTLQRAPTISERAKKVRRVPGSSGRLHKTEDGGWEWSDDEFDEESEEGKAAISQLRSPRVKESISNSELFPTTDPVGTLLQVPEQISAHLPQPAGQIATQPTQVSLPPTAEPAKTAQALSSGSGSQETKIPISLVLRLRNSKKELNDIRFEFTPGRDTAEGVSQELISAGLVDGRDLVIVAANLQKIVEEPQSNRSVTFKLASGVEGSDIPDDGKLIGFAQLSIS
UniProt P06493, sequence (whole entry, looked up): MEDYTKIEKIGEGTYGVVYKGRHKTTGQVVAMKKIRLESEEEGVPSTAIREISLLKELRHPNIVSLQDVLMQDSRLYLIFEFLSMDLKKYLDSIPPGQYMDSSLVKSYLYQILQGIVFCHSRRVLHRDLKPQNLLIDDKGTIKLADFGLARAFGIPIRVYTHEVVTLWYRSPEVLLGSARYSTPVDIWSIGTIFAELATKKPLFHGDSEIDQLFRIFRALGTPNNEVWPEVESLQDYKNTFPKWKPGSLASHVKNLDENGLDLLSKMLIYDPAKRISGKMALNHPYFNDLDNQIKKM
UniProt Q9BZL6, sequence (whole entry, looked up): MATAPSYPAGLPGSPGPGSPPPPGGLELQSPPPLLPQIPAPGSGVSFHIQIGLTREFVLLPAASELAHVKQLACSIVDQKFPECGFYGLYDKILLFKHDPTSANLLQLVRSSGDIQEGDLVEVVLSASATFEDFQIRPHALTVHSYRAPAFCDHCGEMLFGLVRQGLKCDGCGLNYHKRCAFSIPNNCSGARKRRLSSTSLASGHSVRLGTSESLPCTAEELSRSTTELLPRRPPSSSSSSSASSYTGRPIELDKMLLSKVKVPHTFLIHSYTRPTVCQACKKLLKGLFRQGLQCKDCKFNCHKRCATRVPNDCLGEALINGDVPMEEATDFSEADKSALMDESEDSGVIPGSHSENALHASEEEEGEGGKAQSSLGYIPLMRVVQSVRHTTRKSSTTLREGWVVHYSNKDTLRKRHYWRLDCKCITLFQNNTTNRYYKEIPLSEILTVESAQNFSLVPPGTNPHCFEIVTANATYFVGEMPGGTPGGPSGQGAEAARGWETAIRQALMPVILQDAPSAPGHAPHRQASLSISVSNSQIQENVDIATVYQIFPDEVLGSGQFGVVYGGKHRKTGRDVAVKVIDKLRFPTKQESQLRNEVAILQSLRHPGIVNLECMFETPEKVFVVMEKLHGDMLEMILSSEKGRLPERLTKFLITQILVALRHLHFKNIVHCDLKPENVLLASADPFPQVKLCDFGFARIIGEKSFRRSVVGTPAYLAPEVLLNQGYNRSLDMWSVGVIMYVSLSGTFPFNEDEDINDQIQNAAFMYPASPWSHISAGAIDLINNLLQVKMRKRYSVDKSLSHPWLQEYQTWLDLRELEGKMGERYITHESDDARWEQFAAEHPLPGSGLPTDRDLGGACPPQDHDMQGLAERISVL
UniProt P19784, sequence (whole entry, looked up): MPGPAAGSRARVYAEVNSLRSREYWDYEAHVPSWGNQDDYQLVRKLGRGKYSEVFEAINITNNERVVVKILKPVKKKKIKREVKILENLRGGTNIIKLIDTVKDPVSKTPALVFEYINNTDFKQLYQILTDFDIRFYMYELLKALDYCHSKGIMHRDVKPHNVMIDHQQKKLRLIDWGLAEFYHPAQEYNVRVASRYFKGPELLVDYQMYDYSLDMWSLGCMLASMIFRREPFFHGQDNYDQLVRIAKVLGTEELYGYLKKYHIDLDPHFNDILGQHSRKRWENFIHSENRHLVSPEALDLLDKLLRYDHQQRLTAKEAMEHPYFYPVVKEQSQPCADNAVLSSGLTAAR
UniProt Q96NX5, sequence (whole entry, looked up): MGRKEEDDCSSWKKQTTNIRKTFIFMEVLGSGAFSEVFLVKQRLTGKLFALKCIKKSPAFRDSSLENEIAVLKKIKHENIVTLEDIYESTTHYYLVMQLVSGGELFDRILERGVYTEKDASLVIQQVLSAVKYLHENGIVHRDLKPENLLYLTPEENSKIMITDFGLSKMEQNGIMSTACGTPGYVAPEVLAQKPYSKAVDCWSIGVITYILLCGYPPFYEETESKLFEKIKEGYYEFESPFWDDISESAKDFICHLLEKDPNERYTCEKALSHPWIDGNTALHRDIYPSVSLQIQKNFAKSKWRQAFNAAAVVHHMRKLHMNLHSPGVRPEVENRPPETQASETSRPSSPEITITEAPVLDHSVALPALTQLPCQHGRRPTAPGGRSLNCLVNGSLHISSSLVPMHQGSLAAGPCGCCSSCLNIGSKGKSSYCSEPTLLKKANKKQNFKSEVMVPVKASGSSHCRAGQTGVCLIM

Set 1 — effect on: ligand displacement; tested at: 10 µM
Target: Histamine H1 receptor (HRH1, Homo sapiens, UniProt P35367)
UniProt P35367, sequence (whole entry, looked up): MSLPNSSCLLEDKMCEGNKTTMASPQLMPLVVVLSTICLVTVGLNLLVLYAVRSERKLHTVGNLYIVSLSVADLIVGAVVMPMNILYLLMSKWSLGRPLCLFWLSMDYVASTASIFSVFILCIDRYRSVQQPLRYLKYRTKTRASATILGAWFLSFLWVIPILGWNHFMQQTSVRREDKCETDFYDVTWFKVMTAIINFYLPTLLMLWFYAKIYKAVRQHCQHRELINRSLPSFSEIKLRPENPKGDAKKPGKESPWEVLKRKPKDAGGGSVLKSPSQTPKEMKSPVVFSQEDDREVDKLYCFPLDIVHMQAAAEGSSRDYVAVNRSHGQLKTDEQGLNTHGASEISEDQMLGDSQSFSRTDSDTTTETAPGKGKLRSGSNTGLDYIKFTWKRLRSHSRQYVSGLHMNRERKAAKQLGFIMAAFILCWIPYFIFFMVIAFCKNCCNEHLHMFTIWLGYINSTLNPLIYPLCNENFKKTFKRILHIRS
The inhibition of `COc1cc(C(=O)O)ncc1C#Cc1ccccc1NS(=O)(=O)c1cccc2c(N(C)C)ccnc12` is reported as -1.47%.
The inhibition of `CCOc1ccc(S(=O)(=O)Nc2ccc(Cl)cc2C#Cc2cnc(C(=O)O)cc2OC)c2ncccc12` is reported as 21.7%.
The inhibition of `Cn1cc(Cl)c2c(Oc3c(F)cc(Nc4cc(Cl)nc(N)n4)cc3F)ccnc21` is reported as 3.19%.
With `Nc1nc(NCc2ccccc2)nc(-c2ccccc2CO)n1` the inhibition was -4.07%.
For `CCC(=NO)C(C)=Cc1ccc(F)c(C)c1`, the inhibition was 15.2%.
`COc1ccc2cc(OCC3(C(=O)O)CN(C(=O)c4ccc(F)cc4)C3)ccc2c1` gave an inhibition of -11.5%.
With `c1ccc(N2CCN(Cc3nc4ccccc4[nH]3)CC2)nc1` the inhibition was 83.3%.
The inhibition of `NS(=O)(=O)c1cc(NC(=O)Cc2ccccc2)ccc1Oc1cccc(Cl)c1` is reported as 15.7%.
`O=C(Nc1ccc(Oc2ccc(F)cc2)cc1)N1CCc2ncccc2[C@H]1c1ccc(F)cc1` gave an inhibition of 15.9%.
With `CN([C@@H]1CCc2c(CC(=O)O)c3ccccc3n2C1)S(=O)(=O)c1ccc(F)cc1` the inhibition was -19.7%.
For `COCCOc1nc(-c2ccc(Cl)nc2)nc2c1CN(C(=O)c1ncn3ccccc13)CC2`, the inhibition was 23.9%.

Set 2 — effect on: enzyme activity; tested at: 5 µM
Compound: O=C(Nc1cnn(-c2csc(C(=O)NC3COC3)c2)c1)Nc1ccccc1Cl
The remaining activity was 86.4% (Cyclin-dependent kinase 1, with cyclin E (CDK1, Homo sapiens, UniProt P06493); reference: untreated control).
For Serine/threonine-protein kinase D2 (PRKD2, Homo sapiens, UniProt Q9BZL6); reference: untreated control: remaining activity read 94.9%.
The remaining activity was 121% (Serine/threonine-protein kinase TAO1 (TAOK1, Homo sapiens, UniProt Q7L7X3); reference: untreated control).
It gave 100% for remaining activity (Kinase suppressor of Ras 1 (KSR1, Homo sapiens, UniProt Q8IVT5); reference: untreated control).
The remaining activity was 94% (Calcium/calmodulin-dependent protein kinase type 1G (CAMK1G, Homo sapiens, UniProt Q96NX5); reference: untreated control).
For Casein kinase II subunit alpha' (CSNK2A2, Homo sapiens, UniProt P19784); reference: untreated control: remaining activity read 94.9%.
It gave 92.4% for remaining activity (Serine/threonine-protein kinase OSR1 (OXSR1, Homo sapiens, UniProt O95747); reference: untreated control).
It gave 93.3% for remaining activity (Dual specificity testis-specific protein kinase 2 (TESK2, Homo sapiens, UniProt Q96S53); inhibitor).

Set 3 — effect on: enzyme activity; action: inhibitor; tested at: 10 µM
Target: Calcium/calmodulin-dependent protein kinase type II subunit alpha (CAMK2A, Homo sapiens, UniProt Q9UQM7)
UniProt Q9UQM7, sequence (whole entry, looked up): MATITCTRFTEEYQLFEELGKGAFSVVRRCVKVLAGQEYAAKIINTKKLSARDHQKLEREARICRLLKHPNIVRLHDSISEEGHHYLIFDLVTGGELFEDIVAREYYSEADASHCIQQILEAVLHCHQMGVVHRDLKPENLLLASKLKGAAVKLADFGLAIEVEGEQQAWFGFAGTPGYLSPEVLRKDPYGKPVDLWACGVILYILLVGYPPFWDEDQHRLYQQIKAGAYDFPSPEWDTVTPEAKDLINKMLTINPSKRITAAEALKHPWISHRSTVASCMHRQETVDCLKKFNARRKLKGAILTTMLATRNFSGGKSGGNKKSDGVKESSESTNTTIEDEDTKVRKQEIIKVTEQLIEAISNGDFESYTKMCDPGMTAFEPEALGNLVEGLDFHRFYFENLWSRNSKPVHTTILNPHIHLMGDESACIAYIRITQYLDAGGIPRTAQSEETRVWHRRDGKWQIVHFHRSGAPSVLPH
With `CC(CC(=O)O)C(=O)O` (centres unmarked) the inhibition was 22%.
The inhibition of `C=C1C[C@@]23CC[C@H]4[C@@](C)(CCC[C@@]4(C)C(=O)O)[C@@H]2CC[C@@H]1C3` is reported as -29%.
`CC(C)=CCC/C(C)=C/CC/C(C)=C/CC/C(C)=C/CC/C(C)=C/CC/C(C)=C/CC/C(C)=C/CC/C(C)=C/CC/C(C)=C/CO` gave an inhibition of 5%.
With `Cc1ccc(Nc2nccc(N(C)c3ccc4c(C)n(C)nc4c3)n2)cc1S(N)(=O)=O` the inhibition was 0%.
The inhibition of `O=C(O)c1ccccc1-c1c2ccc(=O)cc-2oc2cc(O)ccc12` is reported as -2%.
With `CCCC[C@H](CC)COC(=O)/C=C/c1ccc(OC)cc1` the inhibition was 11%.
The inhibition of `CC(=C(CCO)SSCC1CCCO1)N(C=O)Cc1cnc(C)nc1N` (stereo in doubt) is reported as 1%.
The inhibition of `O=[N+]([O-])c1cncn1CCN1CCOCC1` is reported as -7%.

Set 4 — effect on: enzyme activity; action: inhibitor; tested at: 0.5 µM; reference: control
Target: Ephrin type-B receptor 1 (EPHB1, Homo sapiens, UniProt P54762)
UniProt P54762, sequence (whole entry, looked up): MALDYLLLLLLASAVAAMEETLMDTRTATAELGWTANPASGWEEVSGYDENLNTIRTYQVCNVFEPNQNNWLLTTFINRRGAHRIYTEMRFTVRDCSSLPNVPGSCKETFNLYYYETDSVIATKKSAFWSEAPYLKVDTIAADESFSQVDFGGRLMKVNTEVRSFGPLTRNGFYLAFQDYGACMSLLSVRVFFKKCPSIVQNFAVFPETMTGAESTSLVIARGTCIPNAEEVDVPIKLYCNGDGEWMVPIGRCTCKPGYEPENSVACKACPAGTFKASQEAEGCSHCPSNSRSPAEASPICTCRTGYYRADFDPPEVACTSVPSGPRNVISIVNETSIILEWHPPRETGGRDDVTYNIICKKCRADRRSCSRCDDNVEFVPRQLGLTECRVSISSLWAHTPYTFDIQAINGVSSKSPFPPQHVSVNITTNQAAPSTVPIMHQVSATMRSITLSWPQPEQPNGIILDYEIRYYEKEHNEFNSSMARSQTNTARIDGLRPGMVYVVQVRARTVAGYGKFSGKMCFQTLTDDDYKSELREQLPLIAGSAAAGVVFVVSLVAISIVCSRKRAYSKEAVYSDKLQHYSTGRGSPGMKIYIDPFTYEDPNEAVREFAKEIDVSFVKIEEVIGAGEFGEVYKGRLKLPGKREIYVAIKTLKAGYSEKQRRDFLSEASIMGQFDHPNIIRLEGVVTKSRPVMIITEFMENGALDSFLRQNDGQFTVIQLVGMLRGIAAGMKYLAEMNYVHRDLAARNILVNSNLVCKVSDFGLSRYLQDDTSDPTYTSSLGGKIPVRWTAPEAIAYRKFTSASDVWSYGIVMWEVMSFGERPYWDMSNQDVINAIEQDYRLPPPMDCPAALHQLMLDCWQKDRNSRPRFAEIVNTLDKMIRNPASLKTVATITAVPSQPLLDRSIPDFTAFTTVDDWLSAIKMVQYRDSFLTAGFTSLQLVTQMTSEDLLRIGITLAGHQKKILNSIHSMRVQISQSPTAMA
`O=C1NC(=O)C(c2cn(CCCn3ccnc3)c3ccccc23)=C1Nc1ccccc1` gave a remaining activity of 102%.
`Cc1ccc(Nc2nccc(N(C)c3ccc4c(C)n(C)nc4c3)n2)cc1S(N)(=O)=O` gave a remaining activity of 92.2%.
`CN(C)c1ccc(C=C2C(=O)Nc3ccccc32)cc1` gave a remaining activity of 102%.
For `O=C(O)c1ccc2c3c1cccc3c(=O)n1c3ccccc3nc21`, the remaining activity was 97.5%.
`Cc1nc(-c2ccccc2)c(-c2ccncc2)o1` has a remaining activity of 107%.
`O=S(=O)(c1cccc2cnccc12)N1CCCNCC1` gave a remaining activity of 106%.
`OCC(O)CCON=C1C(c2c(O)[nH]c3ccccc23)=Nc2ccccc21` (centres unmarked) has a remaining activity of 65.9%.
The remaining activity of `CC(C)[C@H](CO)Nc1nc(Nc2cc(N)cc(Cl)c2)c2ncn(C(C)C)c2n1` is reported as 59.2%.
The remaining activity of `Nc1ccc2ncnc(NCCc3ccc(Oc4ccccc4)cc3)c2c1` is reported as 97.9%.
For `Cc1ccc(NC(=O)c2ccc(CN3CCN(C)CC3)cc2)cc1Nc1nc(-c2cccnc2)cs1`, the remaining activity was 94.9%.
`Cn1c2ccccc2c2c3c(c4c5ccccc5n(CCC#N)c4c21)CNC3=O` has a remaining activity of 95%.
`Cn1sc(=O)n(Cc2ccccc2)c1=O` has a remaining activity of 100%.
For `CCOC(=O)c1c(C)[nH]c(/C=C2\C(=O)Nc3ccccc32)c1C`, the remaining activity was 97.5%.
With `CO[C@H]1C[C@@H]2CC[C@@H](C)[C@@](O)(O2)C(=O)C(=O)N2CCCC[C@H]2C(=O)O[C@H]([C@H](C)C[C@@H]2CC[C@@H](O)[C@H](OC)C2)CC(=O)[C@H](C)/C=C(\C)[C@@H](O)[C@@H](OC)C(=O)[C@H](C)C[C@H](C)/C=C/C=C/C=C/1C` the remaining activity was 110%.
